Published values collected from several papers.
Protocols differ between the studies behind these lines. pIC50: −log10 of the molar value.
Cell line: MDA-MB-231

Compound	observed	action	method	time	setting	pIC50
N.N.O=C([O][Pt]([OH])([Cl])[Cl])c1ccc(P(c2ccccc2)c2ccccc2)cc1.[Cl][Au]	cell growth or viability		resazurin	72 h		5.15
CCCCCCCCCCCCN(CCCCCCCCCCCC)C1=[S+][Au-]2([S]1)[c]1ccccc1-c1cccc[c]12	cell growth or viability		MTT	72 h		< 4.00
CC1OC(OC2CC(O)C3(CO)C4C(O)CC5(C)C(C6COC(=O)C6)CCC5(O)C4CCC3(O)C2)C(O)C(O)C1O (stereo not drawn)	cell migration	inhibitor				5.37
O=C1N[C@H]2[C@H](CS[C@H]2CCCCC(=O)OCc2ccnc(-c3cc(COC(=O)CCCC[C@@H]4SC[C@@H]5NC(=O)N[C@@H]54)ccn3)c2)N1.O=S(=O)([O-])C(F)(F)F.[Ru+2].c1cc[cH-]c1.c1ccc(P(c2ccccc2)c2ccccc2)cc1	cell growth or viability		MTT	24 h		4.94
Cc1nn(-c2ccccc2)c(O)c1C(c1cccs1)c1c(C)nn(-c2ccccc2)c1O	cell growth or viability		MTT	48 h		4.43
CC(C)c1cccc(C(C)C)c1-n1c[n+](-c2c(C(C)C)cccc2C(C)C)c2c1-c1cccc3cccc-2c13.[Cl][Pd-]([Cl])[CH2]C=Cc1ccccc1	cell growth or viability		MTT	72 h		5.40
C[C@@H](O)[C@H](NC(=O)[C@H](CCCNC(=N)N)NC(=O)[C@H](CCCNC(=N)N)NC(=O)[C@H](CCCNC(=N)N)NC(=O)[C@@H]1CCCN1C(=O)[C@@H](N)CO)C(=O)N1CCC[C@H]1C(=O)N[C@@H](CO)C(=O)N1CCC[C@H]1C(=O)N[C@@H](CCCNC(=N)N)C(=O)N[C@@H](CCCNC(=N)N)C(=O)N[C@@H](CCCNC(=N)N)C(=O)N[C@@H](CCCNC(=N)N)C(=O)N[C@@H](CO)C(=O)N[C@@H](CCC(N)=O)C(=O)N[C@@H](CO)C(=O)N1CCC[C@H]1C(=O)N[C@@H](CCCNC(=N)N)C(=O)N[C@@H](CCCNC(=N)N)C(=O)N[C@@H](CCCNC(=N)N)C(N)=O	cell viability		CellTiter-Blue	24 h	serum-free medium	< 4.00
Cc1nn(-c2ccccc2)c(O)c1C(c1ccc(F)cc1)c1c(C)nn(-c2ccccc2)c1O	cell growth or viability		MTT	48 h		4.74
COC(=O)C1CN1S(=O)(=O)c1ccccc1 (stereo not drawn)	cell growth or viability		MTT	48 h		4.64
C#CCCCC[C@H](C)C[C@@H](C)C(=O)N(C)[C@@H](C)C(=O)N1CCC[C@H]1C(=O)N(C)[C@H](C(=O)N(C)[C@H](C(=O)OC)C(C)C)C(C)C	cell growth or viability		SRB			5.52
COC(=O)C1CN1S(=O)(=O)c1ccc(C)cc1 (stereo not drawn)	cell growth or viability		MTT	48 h		4.21
C[C@H](N)[C@@H](CCCCCCCCCCCCCCC(=O)CCCCCCC[C@@H](O)[C@@H](C)N)O[C@@H]1O[C@H](CO)[C@H](O)[C@H](O)[C@H]1O	cell growth or viability		resazurin	96 h		5.22

Some of these lines once more:
Compound	observed	action	method	time	setting	pIC50
Cc1nn(-c2ccccc2)c(O)c1C(c1cccs1)c1c(C)nn(-c2ccccc2)c1O	cell growth or viability		MTT	48 h		4.43
